# Experimental data of several laboratories.
# A part holds a random share of what one study measured. Changes are numbered by the printed parent chain.

# Block 1
# Target: CCNA1, cyclin fold, Cln2 fusion (human)
# Method: yeast growth competition, sequencing
# Sample: yeast
# Setting: weak parent motif
# Relative to: not given
# Reading: higher = stronger binding
# Starting sequence: MASTL docking peptide (human); PMIAKNLMCELDE; partner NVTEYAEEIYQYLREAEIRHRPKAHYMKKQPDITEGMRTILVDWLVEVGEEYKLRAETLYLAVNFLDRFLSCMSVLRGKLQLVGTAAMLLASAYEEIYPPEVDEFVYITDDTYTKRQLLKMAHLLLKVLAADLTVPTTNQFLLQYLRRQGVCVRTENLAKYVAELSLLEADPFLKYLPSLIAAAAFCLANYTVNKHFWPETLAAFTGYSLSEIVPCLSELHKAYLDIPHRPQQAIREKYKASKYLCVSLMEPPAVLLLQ
Variant,normalised enrichment score
PMIAKNLMCEMDE [L11M],-0.625
PMIAKNLMCELRE [D12R],2.03e-05
PMIAANLMCELDE [K5A],0.516
PMGAKNLMCELDE [I3G],0.311
PMIAKNLFCELDE [M8F],0.0113
PMIAKNLMCEIDE [L11I],0.237
PMIAKTLMCELDE [N6T],0.616
PMIAKNLMCCLDE [E10C],-0.0576
PMIAKNLMSELDE [C9S],0.0316
PHIAKNLMCELDE [M2H],0.201
PMIAKNLMCSLDE [E10S],0.146
PMIAKNLMWELDE [C9W],0.711
PMIAKNTMCELDE [L7T],-0.38
PYIAKNLMCELDE [M2Y],0.237
PLIAKNLMCELDE [M2L],0.0729
PMIAKWLMCELDE [N6W],-0.261
PCIAKNLMCELDE [M2C],-0.0462
PMIAKNIMCELDE [L7I],0.0119

# Block 2
# Target: ABI1, truncated, D143A, DHFR fusion (Arabidopsis thaliana)
# Method: DHFR PCA, deep sequencing
# Sample: yeast
# Setting: methotrexate growth selection, single substitutions
# Together with: (+)-ABA 710 µM
# Relative to: wild-type fitted maximum
# Reading: higher = stronger binding
# Starting sequence: PYL1, truncated, DHFR fusion (Arabidopsis thaliana); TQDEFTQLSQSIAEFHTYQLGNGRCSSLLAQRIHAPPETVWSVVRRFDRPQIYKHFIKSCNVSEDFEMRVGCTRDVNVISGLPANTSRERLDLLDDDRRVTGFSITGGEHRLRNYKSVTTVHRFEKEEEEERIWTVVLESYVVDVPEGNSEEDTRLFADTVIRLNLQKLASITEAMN
Variant,relative binding score
T101P,-2.98%
C60M,73.9%
D153Y,13.6%
I162Q,10.7%
R32A,94.9%
I105W,-12.1%
T160K,94.6%
V70G,81.2%
G71Y,52.8%
E131I,107%
L166G,9.53%
D75L,105%
G148A,90.2%
T73L,97%
V143Y,45.3%
L28N,64.3%
G23K,96.9%

# Block 3
# Target: Prothrombin, mature alpha-thrombin (F2, Homo sapiens, UniProt P00734)
# Method: aptamer microarray, sandwich
# Molecule type: DNA with 2'F-ANA
# Sample: in vitro
# Concentration: 200 nM
# Setting: whole 15-mer aptamer, many near background
# Together with: Cy3 exosite-II aptamer, 400 nM
# Reading: higher = stronger binding
# Sequence: GGTTGGTGTGGTTGG
Modification,mean fluorescence intensity [a.u.]
2'F-ANA at 1 2 4 5 6 9 10 11 15,53.6
2'F-ANA at 1 2 3 5 6 7 8 9 10,49.6
2'F-ANA at 4 7 8 9 10 11 12 13 14,63.6
2'F-ANA at 1 4 5 8 9 10 11 15,49.1
2'F-ANA at 4 5 6 7 8 9 10 13,44
2'F-ANA at 3 4 5 6 9 12 14 15,53.5
2'F-ANA at 1 2 5 7 8 9 11 12,109
2'F-ANA at 1 4 7 10 14 15,44.5
2'F-ANA at 1 2 5 8 11 15,55.7
2'F-ANA at 1 5 6 8 10 13,47.9
2'F-ANA at 3 5 9 14 15,56
2'F-ANA at 3 4 5 7 8 10 11 12 13,56.8
2'F-ANA at 1 2 3 5 9 10 13 15,48.4
2'F-ANA at 1 5 6 8 11 14,82.7
2'F-ANA at 3 4 11 12 13,679
2'F-ANA at 1 3 4 6 7 13 14,84.5

# Block 4
# Target: RING finger protein unkempt homolog, zinc fingers 1-6, GST-SBP tag (UNK, Homo sapiens, UniProt Q9C0B0, residues 30-357)
# Sequence of UniProt Q9C0B0 (30-357, looked up): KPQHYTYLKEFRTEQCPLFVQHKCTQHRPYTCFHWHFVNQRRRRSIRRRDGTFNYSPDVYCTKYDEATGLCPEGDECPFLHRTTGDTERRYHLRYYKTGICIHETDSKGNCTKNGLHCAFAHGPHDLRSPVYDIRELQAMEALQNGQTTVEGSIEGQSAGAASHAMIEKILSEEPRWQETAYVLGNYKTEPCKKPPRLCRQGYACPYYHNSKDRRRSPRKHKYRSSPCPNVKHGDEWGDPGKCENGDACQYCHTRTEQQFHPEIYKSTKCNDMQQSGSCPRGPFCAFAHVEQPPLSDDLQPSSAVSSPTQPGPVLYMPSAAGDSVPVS
# Method: RNA Bind-n-Seq
# Molecule type: RNA
# Sample: in vitro
# Concentration: not given
# Setting: RNA with constant flanks, human and mouse sites, ends assumed
# Relative to: input RNA pool
# Reading: higher = stronger binding
# Shared flanks, not repeated: GGGAGUUCUACAGUCCGACGAUC … CAACAGAGGAUUGAGCAUCA
Sequence,bound/input enrichment
UUUUAAAAAUAACUAGUGUAGCUUAUCUUAAACAUUUUAUAAAACCUUCAGAUGUCUUUAAGCAGAUUGGAAGUAUGCAAGUGCUUCCUUAGCAGGGACAGUGGAUAAUCCUUAAUGGUU,11.6 ratio
AGUCCAGCCCGGUGCCUGGGGCGCCUUUCAGCUCCGCGCUCAGAUUUUCCUGUUUUCGUUGUUUUCAAAGACAGCGACAUUUCGGGUCUGGUGCUAACACCCCCUUCCCAGCCUCUGGGA,0.103 ratio
AAGAAAAUAGUGGUGUGAUUUGGGGAUAUUUUUUUCUUUUCUUUUCUUUUCUUUUUUUUUUUUUUUGACAAGGGGCAGUGGUGGUUUUCUGUUCUUUCUGGCUAUGCAUUUGAAAAUUUU,1.05 ratio
UACUAGGUUCUUGAUUCCCUUAUAUGGCAAUCAGGCAGAGGCGUUCCUUAAGCAUUAGAGAGUUCUGAAGCUUAAGAUUUGUUUUGGUUGGAUGAAGUCCUUAGUACAGUUGAAAAACAG,0.366 ratio
ACAGGAAAGAAGGCAUAUAAAUGUAAUAAAUGUGGAAAAGCCUUCAGCCAGAAGGAAAACUUCCUUUCUCAUCAGAAACAUCACACUGGAGAGAAACCUUAUGAAUGUGAAAAAGUUUCU,0.112 ratio
AUCAAGCAGCUGUUGCAAUCUGCCCACAAAGAAUCCAGCUUUGACAUUAUUUUGUCAGGUUUAGUCCCAGGAAGCACCACUCUGCACAGUGCUGAGAUUUUGGCUGAAAUCGCCCGGAUC,0.179 ratio
CCAGGUGUGCCCGGCUAAUGGUAUUACUGAGAGAGAGAGGCGUAAGAACUCUUAUUUAUUAUAGAAAGGAUUUGGGGAAUGUGGGUCUAAGGGCUGGGGGUGUGGGUUAGUGGUGUGCAU,12 ratio
CUGCUCCUCUCCUGGGCGGCGGGGCUGGGAGGUCAGUAUGGAAAUCCUUUAAAUAAAUAUAUUAGACAUUAUGAAGGAUUAUCUUACAAUGUGGAUUCAUUACACCAAAAACACCAGCGU,5.93 ratio

# A few entries again (block 1):
Variant,normalised enrichment score
PMIAKNIMCELDE [L7I],0.0119
PLIAKNLMCELDE [M2L],0.0729
PMIAKNLMCEIDE [L11I],0.237
PMIAKNLMCSLDE [E10S],0.146
PMIAANLMCELDE [K5A],0.516
